Assay results collected from several papers.
Compare with care: the assays were run in different laboratories. Several values in a cell are separate wells, animals, samples, runs or records. ± gives the spread as reported.
STUB1: E3 ubiquitin-protein ligase CHIP (STUB1, Homo sapiens, UniProt Q9UNE7)
Chain of UniProt Q9UNE7 (whole entry, looked up): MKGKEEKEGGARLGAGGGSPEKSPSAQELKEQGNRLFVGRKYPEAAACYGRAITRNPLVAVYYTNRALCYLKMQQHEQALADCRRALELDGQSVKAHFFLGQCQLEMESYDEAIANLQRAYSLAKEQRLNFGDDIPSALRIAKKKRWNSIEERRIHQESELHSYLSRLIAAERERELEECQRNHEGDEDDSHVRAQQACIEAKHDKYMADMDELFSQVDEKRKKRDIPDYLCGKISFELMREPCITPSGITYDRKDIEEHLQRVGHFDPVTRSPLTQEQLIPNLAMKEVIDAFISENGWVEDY
GUK1: GUK1 (Homo sapiens, UniProt Q16774)
Chain of UniProt Q16774 (whole entry, looked up): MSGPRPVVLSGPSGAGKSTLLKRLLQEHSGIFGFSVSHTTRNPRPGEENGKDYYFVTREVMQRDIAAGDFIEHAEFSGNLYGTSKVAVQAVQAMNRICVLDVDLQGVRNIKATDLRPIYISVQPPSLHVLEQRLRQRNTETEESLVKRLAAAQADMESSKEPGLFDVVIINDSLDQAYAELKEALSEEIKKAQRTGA
Protein kinase C-like 1: Protein kinase C-like 1 (Candida albicans, UniProt P43057)
Chain of UniProt P43057 (whole entry, looked up): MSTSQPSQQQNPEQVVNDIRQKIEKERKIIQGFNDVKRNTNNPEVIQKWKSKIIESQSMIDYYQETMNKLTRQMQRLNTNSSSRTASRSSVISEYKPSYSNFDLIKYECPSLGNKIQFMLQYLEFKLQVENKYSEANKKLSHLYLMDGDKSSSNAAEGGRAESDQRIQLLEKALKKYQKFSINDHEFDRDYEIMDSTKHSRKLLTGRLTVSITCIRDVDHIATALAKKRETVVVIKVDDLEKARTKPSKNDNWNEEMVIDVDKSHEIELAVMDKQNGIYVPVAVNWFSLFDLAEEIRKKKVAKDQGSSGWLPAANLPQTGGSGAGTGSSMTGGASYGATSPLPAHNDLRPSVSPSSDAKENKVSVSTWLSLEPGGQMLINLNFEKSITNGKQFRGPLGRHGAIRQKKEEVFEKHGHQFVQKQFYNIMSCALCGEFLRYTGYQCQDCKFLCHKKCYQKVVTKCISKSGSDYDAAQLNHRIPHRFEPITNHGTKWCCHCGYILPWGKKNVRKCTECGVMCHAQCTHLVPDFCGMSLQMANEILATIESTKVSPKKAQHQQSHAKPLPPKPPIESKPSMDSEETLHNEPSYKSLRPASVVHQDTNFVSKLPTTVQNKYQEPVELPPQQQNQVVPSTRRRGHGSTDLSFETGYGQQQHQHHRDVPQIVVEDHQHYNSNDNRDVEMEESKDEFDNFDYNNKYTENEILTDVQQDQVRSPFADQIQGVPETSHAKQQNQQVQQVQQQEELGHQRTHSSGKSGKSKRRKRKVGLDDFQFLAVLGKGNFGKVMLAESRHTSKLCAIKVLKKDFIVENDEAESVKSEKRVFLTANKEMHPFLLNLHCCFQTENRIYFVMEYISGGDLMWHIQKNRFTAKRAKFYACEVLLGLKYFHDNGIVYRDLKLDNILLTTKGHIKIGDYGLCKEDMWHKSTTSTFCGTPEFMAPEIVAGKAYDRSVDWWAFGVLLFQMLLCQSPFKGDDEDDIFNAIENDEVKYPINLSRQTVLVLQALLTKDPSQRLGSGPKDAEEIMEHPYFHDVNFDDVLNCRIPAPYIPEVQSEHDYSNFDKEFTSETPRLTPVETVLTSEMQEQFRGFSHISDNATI
HTR2C: 5-hydroxytryptamine receptor 2C (HTR2C, Homo sapiens, UniProt P28335)
Chain of UniProt P28335 (whole entry, looked up): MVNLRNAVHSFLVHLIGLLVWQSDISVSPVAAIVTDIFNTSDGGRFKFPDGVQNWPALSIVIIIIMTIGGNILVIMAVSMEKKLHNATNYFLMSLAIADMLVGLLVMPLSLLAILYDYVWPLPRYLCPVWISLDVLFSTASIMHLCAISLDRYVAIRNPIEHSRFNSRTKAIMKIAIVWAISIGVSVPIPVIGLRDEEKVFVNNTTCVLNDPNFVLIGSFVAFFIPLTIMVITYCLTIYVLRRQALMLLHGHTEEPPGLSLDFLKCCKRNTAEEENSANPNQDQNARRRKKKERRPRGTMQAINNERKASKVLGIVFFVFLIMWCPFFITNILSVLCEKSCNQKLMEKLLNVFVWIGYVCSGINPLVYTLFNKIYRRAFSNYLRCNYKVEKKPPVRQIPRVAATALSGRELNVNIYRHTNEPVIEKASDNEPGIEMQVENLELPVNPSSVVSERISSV
T1: neomycin riboswitch RNA U14C, 5'-triphosphate, 2',3'-cyclic phosphate; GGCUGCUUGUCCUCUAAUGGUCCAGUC
Chain of UniProt Q695T7 (whole entry, looked up): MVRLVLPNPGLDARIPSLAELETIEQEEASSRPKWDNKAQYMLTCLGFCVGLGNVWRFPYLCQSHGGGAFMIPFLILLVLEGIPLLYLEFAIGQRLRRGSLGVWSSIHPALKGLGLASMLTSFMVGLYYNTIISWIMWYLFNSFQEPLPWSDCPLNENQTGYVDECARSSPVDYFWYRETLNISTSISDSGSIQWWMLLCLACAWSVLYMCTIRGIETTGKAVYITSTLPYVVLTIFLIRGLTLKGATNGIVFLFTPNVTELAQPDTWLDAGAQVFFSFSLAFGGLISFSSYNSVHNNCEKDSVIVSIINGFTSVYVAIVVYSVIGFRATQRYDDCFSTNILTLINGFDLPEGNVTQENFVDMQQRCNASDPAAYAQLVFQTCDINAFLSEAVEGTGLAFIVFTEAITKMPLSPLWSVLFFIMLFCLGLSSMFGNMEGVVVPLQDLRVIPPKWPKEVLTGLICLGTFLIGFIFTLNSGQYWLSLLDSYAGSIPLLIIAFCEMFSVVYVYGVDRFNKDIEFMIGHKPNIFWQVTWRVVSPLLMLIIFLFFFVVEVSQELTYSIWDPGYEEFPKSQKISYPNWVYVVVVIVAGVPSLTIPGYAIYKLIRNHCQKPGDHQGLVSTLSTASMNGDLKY
Chain of UniProt O76090 (whole entry, unmodified, looked up): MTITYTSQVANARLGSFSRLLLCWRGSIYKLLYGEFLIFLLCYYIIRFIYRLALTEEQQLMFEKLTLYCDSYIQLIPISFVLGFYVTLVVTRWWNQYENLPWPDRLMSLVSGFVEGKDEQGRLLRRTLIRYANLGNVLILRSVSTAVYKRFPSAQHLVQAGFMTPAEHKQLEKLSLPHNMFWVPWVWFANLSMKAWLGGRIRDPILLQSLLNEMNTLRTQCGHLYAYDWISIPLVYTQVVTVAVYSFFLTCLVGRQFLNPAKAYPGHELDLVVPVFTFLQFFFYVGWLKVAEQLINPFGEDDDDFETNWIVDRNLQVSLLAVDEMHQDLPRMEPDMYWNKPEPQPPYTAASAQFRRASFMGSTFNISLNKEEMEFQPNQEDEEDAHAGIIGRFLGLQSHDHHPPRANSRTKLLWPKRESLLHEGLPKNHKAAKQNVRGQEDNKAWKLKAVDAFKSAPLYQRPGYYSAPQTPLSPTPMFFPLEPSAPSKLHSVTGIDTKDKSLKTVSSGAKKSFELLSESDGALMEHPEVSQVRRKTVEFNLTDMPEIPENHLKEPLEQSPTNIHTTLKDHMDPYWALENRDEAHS
Chain of UniProt P51575 (whole entry, unmodified, looked up): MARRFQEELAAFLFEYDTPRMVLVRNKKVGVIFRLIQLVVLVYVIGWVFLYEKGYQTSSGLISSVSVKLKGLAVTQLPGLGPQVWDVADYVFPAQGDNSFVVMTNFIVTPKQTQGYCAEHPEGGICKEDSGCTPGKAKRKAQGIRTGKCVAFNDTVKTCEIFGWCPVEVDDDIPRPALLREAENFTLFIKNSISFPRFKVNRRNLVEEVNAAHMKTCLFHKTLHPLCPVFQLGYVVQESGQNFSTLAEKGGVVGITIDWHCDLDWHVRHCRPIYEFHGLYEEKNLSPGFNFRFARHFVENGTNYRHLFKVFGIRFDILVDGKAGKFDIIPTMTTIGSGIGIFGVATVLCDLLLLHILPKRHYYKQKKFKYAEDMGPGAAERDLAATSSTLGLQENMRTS
Chain of UniProt Q63531 (whole entry, looked up): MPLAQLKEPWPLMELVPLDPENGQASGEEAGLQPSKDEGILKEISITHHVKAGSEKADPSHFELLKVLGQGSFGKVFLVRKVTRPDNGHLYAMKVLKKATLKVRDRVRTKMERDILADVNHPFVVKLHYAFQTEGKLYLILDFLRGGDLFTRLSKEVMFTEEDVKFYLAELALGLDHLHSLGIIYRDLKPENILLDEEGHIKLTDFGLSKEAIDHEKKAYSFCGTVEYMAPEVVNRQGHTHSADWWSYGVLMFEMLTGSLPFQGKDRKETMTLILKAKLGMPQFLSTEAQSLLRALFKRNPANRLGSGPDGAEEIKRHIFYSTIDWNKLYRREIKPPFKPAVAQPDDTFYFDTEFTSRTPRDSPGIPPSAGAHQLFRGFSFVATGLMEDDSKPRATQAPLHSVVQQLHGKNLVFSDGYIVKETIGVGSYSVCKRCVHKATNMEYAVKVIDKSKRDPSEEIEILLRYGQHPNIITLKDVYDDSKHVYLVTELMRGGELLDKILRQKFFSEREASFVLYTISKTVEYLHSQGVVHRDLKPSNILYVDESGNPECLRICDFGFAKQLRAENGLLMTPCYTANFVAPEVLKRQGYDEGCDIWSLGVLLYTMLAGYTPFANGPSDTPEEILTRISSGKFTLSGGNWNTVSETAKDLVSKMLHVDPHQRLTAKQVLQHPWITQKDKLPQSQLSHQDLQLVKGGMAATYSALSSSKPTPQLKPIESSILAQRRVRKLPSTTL
Chain of UniProt P53778 (whole entry, looked up): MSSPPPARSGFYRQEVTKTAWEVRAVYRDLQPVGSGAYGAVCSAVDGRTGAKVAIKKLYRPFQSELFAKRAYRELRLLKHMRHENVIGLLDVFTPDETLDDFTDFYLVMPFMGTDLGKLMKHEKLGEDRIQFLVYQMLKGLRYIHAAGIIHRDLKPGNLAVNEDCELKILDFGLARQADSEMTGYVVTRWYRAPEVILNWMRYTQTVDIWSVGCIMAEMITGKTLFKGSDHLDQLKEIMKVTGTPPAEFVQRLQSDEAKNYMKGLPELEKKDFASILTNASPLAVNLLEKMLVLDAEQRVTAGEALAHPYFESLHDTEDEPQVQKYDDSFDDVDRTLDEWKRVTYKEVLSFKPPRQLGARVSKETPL
Chain of UniProt P02754 (whole entry, looked up): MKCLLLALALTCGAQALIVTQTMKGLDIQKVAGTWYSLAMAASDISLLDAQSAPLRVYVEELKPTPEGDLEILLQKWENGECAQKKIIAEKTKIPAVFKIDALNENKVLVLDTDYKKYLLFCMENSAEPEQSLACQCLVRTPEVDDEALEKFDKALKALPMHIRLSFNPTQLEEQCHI

COc1cc(-c2cncc3c2CN(C)Cc2cc(N4CCNCC4)ccc2-3)cc(OC)c1OC has a remaining activity of 110% (Ribosomal protein S6 kinase alpha-1 (Rps6ka1, Rattus norvegicus, UniProt Q63531); kinase activity; 1 µM, rat enzyme, with: ATP 10 µM; relative to: DMSO control).
COc1cc(F)ccc1-c1ncnc(Nc2cccc(C[S@](C)(=N)=O)c2)n1 has a remaining activity of 103% (Mitogen-activated protein kinase 12 (MAPK12, Homo sapiens, UniProt P53778); kinase activity; 10 µM, with: 10 µM ATP).
With Clc1cncc(OC[C@@H]2CN(CCN3CCc4ccccc43)CCO2)c1 the inhibition was 7.6% (5-hydroxytryptamine receptor 7 (HTR7, Homo sapiens, UniProt P34969); radioligand binding; concentration not given, with: [3H]LSD).
The binding enthalpy of Nc1ccc2cc3ccc(N)cc3nc2c1 is reported as -53 ± 4.6 kJ/mol (Chymotrypsinogen A, activated (alpha-chymotrypsin) (Bos taurus, UniProt P00766); isothermal titration calorimetry; concentration not given, pH 7.4, 25 °C).
For Nc1ncnc2c1ncn2[C@@H]1O[C@H](COP(=O)(O)CP(=O)(O)OP(=O)(O)O)[C@@H](O)[C@H]1O, the calcium influx was 9.69% and 4.15% and 2.64% and 1.65% (P2X purinoceptor 1 (P2RX1, Homo sapiens, UniProt P51575, R292A); calcium influx; 3.16 µM; relative to: ionomycin response).
O=C(O)[C@@H]1CCCN1c1ncnc2[nH]cnc12 (racemic) gave a fold enrichment of 0.937 (STUB1; binding, affinity selection mass spectrometry; relative to: other proteins in batch).
CC1=C(/C=C/C(C)=C/C=C/C(C)=C/C=C/C=C(C)/C=C/C=C(C)/C=C/C2=C(C)CCCC2(C)C)C(C)(C)CCC1 — result for “quenching rate constant”: 1.27e+12 ± 1.8e+11 M⁻¹ s⁻¹ (Beta-lactoglobulin (LGB, Bos taurus, UniProt P02754); intrinsic fluorescence; 298 K).
With Cc1ccc(-n2nc(C)c3c(N)nc(N)nc32)c(Cl)c1 the remaining binding was 21% (Serine/threonine-protein kinase RIO2 (RIOK2, Homo sapiens, UniProt Q9BVS4); KinomeScan competition; 7.5 µM).
With CC(C)C[C@H](N)C(=O)O the current amplitude was 1020 ± 214 nA (Sodium- and chloride-dependent neutral and basic amino acid transporter B(0+) (Slc6a14, Mus musculus, UniProt Q9JMA9); transport current, two-electrode voltage clamp; Xenopus oocytes coexpressing GluN1-GluN2B; 200 µM).
Nc1nc2c(ncn2[C@@H]2O[C@H](COP(=O)(O)O)[C@@H](O)[C@H]2O)c(=O)[nH]1 has a reaction rate of 14.1 s⁻¹ and 22.4 s⁻¹ and 19 s⁻¹ (GUK1; enzyme activity, NADH-coupled; 15.62 µM).
For Nc1ccn([C@H]2C[C@H](O)[C@@H](COP(=O)(O)OP(=O)(O)OP(=O)(O)O)O2)c(=O)n1, the Vmax was 0.47 product fraction (Gag-Pol polyprotein, reverse transcriptase (gag-pol, Human immunodeficiency virus type 1 group M subtype B, UniProt P04585); nucleotide incorporation, substrate; HIV-1; with: DNA template).
The relaxed DNA of O=c1nc(SCc2ccc(C(F)(F)F)cc2)nc(SCc2csc3ccc(Cl)cc23)[nH]1 is reported as 0.7% (DNA topoisomerase 2-alpha (TOP2A, Homo sapiens, UniProt P11388); DNA relaxation; 31.25 µM, replicate 2).
The Vmax of C[C@]12CC[C@@H]3c4ccc(O)cc4CC[C@H]3[C@@H]1CC[C@@H]2O is reported as 136 ± 4 pmol/min/mg protein (UDP-glucuronosyltransferase 1A1 (UGT1A1, Homo sapiens, UniProt P22309); glucuronidation, substrate; human liver microsomes; pH 7.5, 37 °C).
N#Cc1ccn2c(-c3ccncc3)c(-c3ccc(F)cc3)nc2c1 — result for “log2 fold change”: -0.495 (Protein kinase C-like 1; kinase binding, competitor, MIB/MS competition, item: PKC1; Candida albicans cell lysate; 1 µM; relative to: DMSO).
COc1cc(NC(=O)c2cscn2)ccc1/N=N/c1ccccc1Cl has an activation of -3.04% (Metabotropic glutamate receptor 2 (GRM2, Homo sapiens, UniProt Q14416); positive allosteric modulator, IP accumulation; HEK293; 30 µM, in the dark, with: low-dose orthosteric agonist).
For Nc1ncnc2c1ncn2[C@@H]1O[C@H](COP(=O)(O)OP(=O)(O)O)[C@@H](O)[C@H]1O, the ΔH was -1.72 kJ/mol (GUK1; binding, isothermal titration calorimetry; molar ratio 1.955, fitted curve).
With c1ccc(OC[C@@H]2CN(CCN3CCc4ccccc43)CCO2)cc1 the inhibition was 70.5% (HTR2C; radioligand binding; concentration not given, with: [3H]mesulergine).
NCCCC(=O)O: “normalised MST signal” -0.143 (Sodium- and chloride-dependent taurine transporter (SLC6A6, Homo sapiens, UniProt P31641, L306A); binding, microscale thermophoresis; 1.95 µM, room temperature, with: 50 nM labelled protein; higher = more binding).
For Cc1cccc(N2CC(C(=O)O)CC2=O)c1 (centres unmarked), “log fold enrichment” read -0.0805 (STUB1; binding, affinity selection mass spectrometry; relative to: other proteins in batch).
Nc1ccc(C(=O)O)cc1 gave a current density of -13.6 pA/pF and -7.69 pA/pF and -15.1 pA/pF and -9.08 pA/pF and -2.44 pA/pF and -6 pA/pF and -20.9 pA/pF and -2.62 pA/pF (BEST1, with wild-type BEST1 (Homo sapiens, UniProt O76090, R218H); ion current, whole-cell patch clamp; HEK293 co-expressing mutant and wild-type; concentration not given, voltage -60 mV).
Under “log2 fold change”, Cc1n[nH]c2ccc(-c3cc(OC[C@@H](N)Cc4ccccc4)cnc3-c3ccoc3)cc12 is recorded as -0.233 (Protein kinase C-like 1; kinase binding, competitor, MIB/MS competition, item: PKC1; Candida albicans cell lysate; 10 µM; relative to: DMSO).
With CN(CCCCNC(=O)c1cc2ccccc2[nH]1)[C@@H]1Cc2cccc3[nH]c(=O)n(c23)C1 the Hill slope was -0.75 ± 0.04 (HTR2C; binding; with: [3H]5-HT).
For NC[C@H]1O[C@H](O[C@H]2[C@H](O[C@@H]3O[C@H](CO)[C@@H](O)[C@H]3O)[C@@H](O)[C@H](N)C[C@@H]2N)[C@H](N)[C@@H](O)[C@@H]1O, binding read “binds” (T1, neomycin riboswitch RNA U14C, 5'-triphosphate, 2',3'-cyclic phosphate; NMR; pH 6.2, 10 °C).
Nc1ncnc2c1ncn2[C@@H]1O[C@H](COP(=O)(O)OP(=O)(O)OP(=O)(O)O)[C@@H](O)[C@H]1O gave a Km of 2400 ± 400 µM (Hexokinase-3 (HK3, Homo sapiens, UniProt P52790, R480W); substrate; mutant R480W, with: glucose 0.5 mM).
For Cc1cc(OCC(=O)NC(C)C)cc(C)c1Cl, “normalised transport activity” read 0.651 and 0.829 and 0.57 and 0.779 and 0.666 (Sodium-dependent neutral amino acid transporter B(0)AT1 (SLC6A19, Homo sapiens, UniProt Q695T7); membrane potential, FLIPR membrane potential; CHO-BC cells; concentration not given, first screen; relative to: uninhibited control).
With Oc1ccc(/C=C/c2cc(O)cc(O)c2)cc1 the cooperativity factor was 16.8 (O-methyltransferase (Sorghum bicolor, UniProt A0A1B6PFV1); with: 5'-methylthioadenosine 1 mM).
COc1cc2c(cc1OC)C(=O)C(CC1CCN(Cc3ccccc3)CC1)C2 (centres unmarked) has an inhibition of -2.2% (HTR2C; radioligand binding; concentration not given, with: [3H]mesulergine).
With Cc1ccc(N2CC(C(N)=O)CC2=O)cc1 (centres unmarked) the fold enrichment was 0.991 (WD repeat-containing protein 55 (WDR55, Homo sapiens, UniProt Q9H6Y2); binding, affinity selection mass spectrometry; relative to: other proteins in batch).
CCOc1ccc(NC(=O)O[C@@H](Cn2nc(C(C)C)cc2C(C)C)C(C)C)cc1 gave a maximum response of 24.7 ± 0.2 fold (Neuronal acetylcholine receptor; alpha4/beta2, (α4)2(β2)3 stoichiometry (Homo sapiens, UniProt P17787+P43681); two-electrode voltage clamp; Xenopus oocytes; concentration not given, high-sensitivity stoichiometry, with: ACh 3 µM; relative to: ACh alone).
For Cc1ncccc1OC[C@H]1CN(CCN2CCc3ccccc32)CCO1, the inhibition was 2.1% (HTR2C; radioligand binding; concentration not given, with: [3H]mesulergine).
C[C@H](CCC(C)(C)O)[C@H]1CC[C@H]2[C@@H]3CC=C4C[C@@](C)(O)CC[C@]4(C)[C@H]3CC[C@]12C gave a current response of 156 ± 5.6% (Glutamate NMDA receptor; GRIN1/GRIN2B (GRIN1/GRIN2B, Homo sapiens, UniProt Q05586+Q13224, P553A); positive allosteric modulator, two-electrode voltage clamp; Xenopus oocytes expressing GluN2B-P553A; 10 µM, 0.02% cremophor, with: 100 µM glutamate and glycine; relative to: without compound).
For O=C(O)c1ccc(Nc2ncc3c(n2)-c2ccc(Cl)cc2C(c2c(F)cccc2F)=NC3)cc1, the remaining activity was 120% (ROCK-I(h); kinase activity; 1 µM).
COc1cc(/C=N/NC(=O)c2cc3c(ccc4ccccc43)o2)cc(OC)c1O: activity “inactive” (Estrogen receptor beta (ESR2, Homo sapiens, UniProt Q92731); PGC-1α coactivator displacement, inhibitor, TR-FRET; up to 100 µM, with: estradiol).
The relative kon of CC1=C(/C=C/C(C)=C/C=C/C(C)=C/C=O)C(C)(C)CCC1 is reported as 0.071 ± 0.004 (Rhodopsin, A269F/S144C (RHO, Bos taurus, UniProt P02699, A269F/S144F); retinal entry, Alexa488 FRET; lipid bicelles; 28 °C, A269F mutant; relative to: wild-type rhodopsin).
CC1(C)CC2(C)OC(=O)NC2(C)c2ccccc21 (centres unmarked) — result for “log fold enrichment”: -0.00338 (STUB1; binding, affinity selection mass spectrometry; relative to: other proteins in batch).
With O=C(O)[C@@H](O)[C@H](O)C(=O)O the thermal shift was 2.23 °C (Uncharacterized protein (Pelagibacter ubique, UniProt Q4FKX4); differential scanning fluorimetry; Candidatus Pelagibacter ubique; in-house screen).
COCCC(=O)N1CCC(Oc2ccccc2)C1 (centres unmarked) — result for “log fold enrichment”: -0.0615 (RFWD3 (Homo sapiens, UniProt Q6PCD5); binding, affinity selection mass spectrometry; relative to: other proteins in batch).
COCCNc1nc2ccc(C#CC3(O)CCCCC3)cc2n1-c1ccnc(N)n1 — result for “remaining kinase activity”: 23.6% (Tyrosine-protein kinase Fer (FER, Homo sapiens, UniProt P16591); enzyme activity, inhibitor, Z'-LYTE; 1 µM; relative to: no-inhibitor control).

Some of these lines once more:
The binding enthalpy of Nc1ccc2cc3ccc(N)cc3nc2c1 is reported as -53 ± 4.6 kJ/mol (Chymotrypsinogen A, activated (alpha-chymotrypsin) (Bos taurus, UniProt P00766); isothermal titration calorimetry; concentration not given, pH 7.4, 25 °C).
For Cc1cccc(N2CC(C(=O)O)CC2=O)c1 (centres unmarked), “log fold enrichment” read -0.0805 (STUB1; binding, affinity selection mass spectrometry; relative to: other proteins in batch).
COc1cc(NC(=O)c2cscn2)ccc1/N=N/c1ccccc1Cl has an activation of -3.04% (Metabotropic glutamate receptor 2 (GRM2, Homo sapiens, UniProt Q14416); positive allosteric modulator, IP accumulation; HEK293; 30 µM, in the dark, with: low-dose orthosteric agonist).
COc1cc2c(cc1OC)C(=O)C(CC1CCN(Cc3ccccc3)CC1)C2 (centres unmarked) has an inhibition of -2.2% (HTR2C; radioligand binding; concentration not given, with: [3H]mesulergine).
The Vmax of C[C@]12CC[C@@H]3c4ccc(O)cc4CC[C@H]3[C@@H]1CC[C@@H]2O is reported as 136 ± 4 pmol/min/mg protein (UDP-glucuronosyltransferase 1A1 (UGT1A1, Homo sapiens, UniProt P22309); glucuronidation, substrate; human liver microsomes; pH 7.5, 37 °C).
